# Results collected from several papers.
# Protocols differ between the studies behind these lines. Numbers after ± are the reported error.
# Uncharacterized protein: Uncharacterized protein (Trypanosoma brucei brucei, UniProt Q386Q8)
Structure (SMILES),tested on,assay,test system,setting,scale,quantity,result
O=C(c1cncc(N2Cc3cnn(Cc4ccc(F)cc4)c3C2)n1)N1CCOCC1,HEK293 expressing GluA1 and GluA2,"glutamate excitotoxic cell death, CellTox Green",,together with: glutamate,,IC50,855 nM
Cc1nn(-c2cccc(N)c2)c(=O)c2cnc(Nc3ccc(N4CCNCC4)cc3)nc12,"Calcium/calmodulin-dependent protein kinase type II subunit delta (CAMK2D, Homo sapiens, UniProt Q13557)",SelectScreen kinase,,,,IC50,1810 nM
CCCC[C@H](NC(=O)COCCOCCNC(=O)CN1CCN(CC(=O)O)CCN(CC(=O)O)CC1)C(=O)N[C@H]1CC(=O)NCCCC[C@@H](C(N)=O)NC(=O)[C@H](Cc2c[nH]c3ccccc23)NC(=O)[C@H](CCCNC(=N)N)NC(=O)[C@@H](Cc2ccccc2)NC(=O)[C@H](Cc2c[nH]cn2)NC1=O [technetium-99m labelled],,,"C57 mouse, liver","intravenous, 0.037 MBq, 0.5 h",,tissue uptake,2.4 ± 0.75 %ID/g
COc1cccc(OC)c1-c1cc(C(=O)NC2(C(=O)O)C3CC4CC(C3)CC2C4)nn1-c1ccc(C(=O)N(C)CCOCCN(C)C(=O)[C@H](CCCCNC(=O)[C@H](CC(C)C)NC(=O)C2OC2C(=O)O)NC(=O)CN2CCN(CC(=O)[O-])CCN(CC(=O)[O-])CCN(CC(=O)[O-])CC2)cc1C(C)C.[177Lu+3] (mixture of isomers),HT-29,SDS-PAGE autoradiography,,"concentration not given, 4 h",reference: radioactive signal,adduct formation,49.8%
O=C(NCCCN1CCC2(CC1)OCc1ccccc12)C1CCCN1Cc1ccccc1 (stereo not drawn),"Nociceptin receptor (OPRL1, Homo sapiens, UniProt P41146, Y309A)",,,,,Ki,> 10000 nM
CN1CCCNC(=O)c2cccc(c2)C(=O)NCCCN(C)CCCNc2cccc3c2C(=O)c2cccc(c2C3=O)NCCC1,SAS,"RNA-Seq, item: CARD9 mRNA",,"1 µM, 6 h",reference: untreated cells,log2 fold change,3.48
CC(C)C[C@H](NC(=O)[C@@H](CCCCNC(=O)[C@@H](Cc1ccccc1)NC(=O)CCCCCNC(=O)CN1CCN(CC(=O)O)CCN(CC(=O)O)CCN(CC(=O)O)CC1)NC(=O)[C@H](Cc1ccc(O)cc1)NC(=O)[C@H](CO)NC(=O)[C@H](Cc1c[nH]c2ccccc12)NC(=O)[C@H](Cc1c[nH]cn1)NC(=O)[C@@H]1CCC(=O)N1)C(=O)N[C@@H](CCCNC(=N)N)C(=O)N1CCC[C@H]1C(=O)NCC(N)=O [indium-111 labelled],,,"female athymic nude mice, lung","intravenous, 0.037 MBq, 1 h",,tissue uptake,0.57 ± 0.16 %ID/g
C=CC(=O)Nc1cc(Nc2nccc(-c3c(-c4ccc(CCCC)cc4)n(C)c4ccccc34)n2)c(OC)cc1N(C)CCN(C)C,NCI-H1975,"cell growth or viability, MTT",,"0.5 µM, 72 h",,inhibition,67.2%
COc1ccc(CSC2C3=C(CCCC3=O)Oc3ccc(Br)cc32)cc1 (stereo not drawn),3T3-L1 preadipocytes,"adipogenesis, Oil Red O staining",,"IC20, 14 days",,mean lipid content,0.866 OD492
Cc1ccc(C(=O)/C=C/c2ccccc2)s1,HOP-92,SRB,,10 µM,,growth inhibition,< 0%
Cn1ncc(-c2ccc3c(=O)[nH]nc(CN)c3c2)c1-c1c(F)c(Cl)cc(OC2CC2)c1C#N,143B,"cell viability, inhibitor, CellTiter-Glo",,"120 h, baseline-subtracted",,IC50,620 nM
COc1ccc2c(c1)c(CC(=O)[Se]CC(=O)Nc1cccc(C(F)(F)F)c1)c(C)n2C(=O)c1ccc(Cl)cc1,NCI60 melanoma subpanel,"cell growth, inhibitor",,five-dose,,GI50,1900 nM
N#Cc1cccc(/C=C/C(=O)c2ccc(O)cc2)c1,U-87 MG,item: RUNDC3B,,concentration not given,reference: untreated,fold change,36.3
Cc1c(Cl)cccc1Nc1ccccc1C(=O)[Se]CC(=O)Nc1cccc(C(F)(F)F)c1,NCI60 leukaemia subpanel,NCI60 five-dose screen,,,,GI50,1580 nM
COC(=O)c1cc(NC2=NC(=O)C(=Cc3ccc(N(C)C)cc3)S2)ccc1OC(C)=O,MCF7,item: RAD51 mRNA,,"0.81 µM (IC50), 24 h",reference: DMSO,fold change,0.25
C=CC(=O)Nc1cc(Nc2nccc(-c3c(-c4cc(C)cc(C)c4)n(C)c4ccccc34)n2)c(OC)cc1N(C)CCN(C)C,NCI-H1975,"cell growth or viability, MTT",,"0.5 µM, 72 h",,inhibition,65.5%
COc1ccccc1-c1ccncc1C(=O)Nc1ccc(OCc2ccc(Cl)cc2)nn1,DLD-1 parental (BRCA2 WT),,,"20 µM, average of 3 runs",reference: untreated,colony survival,97.5%
Cn1ncc2cc(-c3cncc(Cl)c3N3CCC4(CCNC4=O)CC3)ccc21,LS174T,"gene expression, microarray, item: NDRG1 mRNA",,"concentration not given, 4 h",reference: untreated cells,log2 fold change,1.43
COc1ccc(OC)c(C2=Nn3c(nnc3C3CCCCC3)SC2)c1,Uncharacterized protein,"inhibitor, coupled colorimetric",Trypanosoma brucei,,,IC50,48900 nM
CO[C@@H]1[C@@H](OC(N)=O)[C@@H](O)[C@H](Oc2ccc3c(O)c(NC(=O)c4ccc(O)c(CC=C(C)C)c4)c(=O)oc3c2C)OC1(C)C,HCT-116 parental,,,"300 µM, replicate 1",,colony count,0.1
C=C(NC(=O)C(=C)NC(=O)c1csc(C2=N[C@@H]3c4csc(n4)[C@H]4NC(=O)c5csc(n5)[C@H]([C@](C)(O)[C@@H](C)O)NC(=O)[C@H]5CSC(=N5)/C(=C/C)NC(=O)[C@H]([C@@H](C)O)NC(=O)c5csc(n5)[C@]3(CC2)NC(=O)[C@H](C)NC(=O)C(=C)NC(=O)[C@H](C)NC(=O)[C@H]([C@@H](C)CC)N[C@@H]2C=Cc3c([C@H](C)O)cc(nc3[C@H]2O)C(=O)O[C@@H]4C)n1)C(N)=O,H-MESO-1,"cell viability, crystal violet",,"6 h exposure, 48 h total",,EC50,1700 nM
CCN(CC)CC(=O)Nc1cccc(-n2cc(-c3ccc4ccc(-c5cn(-c6cccc(NC(=O)CN(CC)CC)c6)nn5)cc4c3)nn2)c1,RCC4,"PCR angiogenesis array, item: PECAM1",,"5 x IC50, 2 h, normoxia",reference: untreated,fold regulation,-1.06
COC1CN([C@H]2CC[C@H]([C@@]3(C)Oc4c(Cl)cc(C(=O)NCc5c(SC)cc(C)[nH]c5=O)c(C)c4O3)CC2)C1,,"RNA-seq, item: PROX1 mouse homolog","mouse, HT-1376 xenograft, whole blood",dose not given,reference: vehicle,log2 fold change,0.969
CN1CCC(N[C@H]2CCc3[nH]c4c(C(N)=O)ccc(-c5ccccc5Cl)c4c3C2)CC1,"K562/DOX, doxorubicin-resistant","cell growth, CellTiter-Glo",,96 h,,IC50,765 nM
CCOC(=O)c1ccc(NC(=O)C(C#N)=C2C(=O)c3ccccc3C2=O)cc1,HepG2,"cell growth or viability, MTT",,"100 µM, 24 h",,viability,26.5%
C=CC(=O)Nc1cc(Nc2nccc(-c3c(-c4cccc(C(F)(F)F)c4)n(C)c4ccccc34)n2)c(OC)cc1N(C)CCN(C)C,NCI-H1975,"cell growth or viability, MTT",,"0.5 µM, 72 h",,inhibition,66%
C=C(NC(=O)c1csc(-c2nc3c(cc2O)-c2nc(cs2)C(=O)NC(C(C)O)C(=O)NC(=C(C)OC)c2nc(cs2)C(=O)NC2c4nc(cs4)C(=O)NC(COC(=O)c4c5c6c(cccc6n4O)COC(=O)C(OC4CC(C)(O)C(N(C)C)C(C)O4)C2OC5)c2nc-3cs2)n1)C(N)=O (stereo not drawn),,,"cynomolgus monkey, female, plasma","intravenous infusion, 3 mg/kg, multiple doses, day 7",,Vz/F,1.05 L/kg
O=C(N1CCCC1)n1cc(-c2ccc(-c3ccccc3)cc2)nn1,mouse T cells,"N-terminal labelling proteomics, item: PAIP2B N-terminal peptides",,"0.001 µM, 6 h",reference: DMSO,SILAC ratio,0.97
O=C(C[Se]C(=O)c1ccc2ccccc2c1)Nc1cccc(C(F)(F)F)c1,NCI60 melanoma subpanel,"total growth inhibition, inhibitor",,five-dose,,mean TGI,3340 nM
C=CC(=O)Nc1cccc(Cn2ncc3cnc(Nc4cnn(CCOC)c4)nc32)c1,MAP4K5 human,"binding, KINOMEscan",,100 nM,lower = stronger binding,percent of control,93%
CC(C)[C@H](NC(=O)[C@@H]1CSSC(C)(C)[C@H](NC(=O)[C@@H](N)CC(=O)O)C(=O)N[C@@H](Cc2ccccc2)C(=O)N[C@H](Cc2c[nH]c3ccccc23)C(=O)N[C@@H](CCCN)C(=O)N[C@@H](Cc2ccc(O)cc2)C(=O)N1)C(=O)O,"Urotensin-2 receptor (UTS2R, Homo sapiens, UniProt Q9UKP6)","inositol phosphate, agonist, TR-FRET",,,,EC50,0.8 nM
C=C1CC[C@H](OCCCNC(=O)CCOCCOCCOCCOCCOCCOCCOCCOCCOCCOCCOCCOCCOCCOCCOCCOCCOCCOCCOCCOCCOCCOCCOCCOCCOCCOCCOCCOCCOCCOCCOCCOCCOCCOCCOCCOCCNC(=O)CCN2C(=O)CC(SC[C@H](NC(=O)[C@H](Cc3ccccc3)NC(=O)[C@H](CC(N)=O)NC(=O)[C@H](Cc3c[nH]cn3)NC(=O)[C@@H](NC(=O)[C@H](CC(=O)O)NC(=O)[C@H](CCC(N)=O)NC(=O)[C@H](CC(C)C)NC(=O)[C@H](CCCCN)NC(=O)[C@H](CCCCN)NC(=O)[C@H](CCCNC(=N)N)NC(=O)[C@H](CC(C)C)NC(=O)[C@H](Cc3c[nH]c4ccccc34)NC(=O)[C@H](CCC(=O)O)NC(=O)[C@@H](NC(=O)[C@H](CCCNC(=N)N)NC(=O)[C@H](CCC(=O)O)NC(=O)[C@H](CCSC)NC(=O)[C@H](CO)NC(=O)[C@H](CC(N)=O)NC(=O)[C@H](CC(C)C)NC(=O)[C@H](Cc3c[nH]cn3)NC(=O)[C@H](CCCCN)NC(=O)CNC(=O)[C@H](CC(C)C)NC(=O)[C@H](CC(N)=O)NC(=O)[C@H](Cc3c[nH]cn3)NC(=O)[C@H](CCSC)NC(=O)[C@H](CC(C)C)NC(=O)[C@H](CCC(N)=O)NC(=O)[C@@H](NC(=O)[C@H](CCC(=O)O)NC(=O)[C@H](CO)NC(=O)[C@@H](NC(=O)[C@@H](N)CO)C(C)C)[C@@H](C)CC)C(C)C)C(C)C)C(=O)O)C2=O)C/C1=C/C=C1\CCC[C@]2(C)[C@@H]([C@H](C)CCCC(C)(C)O)CC[C@@H]12 (stereo partly drawn),,,"male cynomolgus monkey, plasma","subcutaneous, 0.07 mg/kg, single dose",,AUC(0-t),4850 ng·h/mL
CCCC[N+]1=c2cc3c4cc2[O][Mn-2]1(=[C]=O)(=[C]=O)(=[C]=O)[n+]1ccc(cc1)C(=O)Oc1ccccc1OC(=O)c1cc[n+](cc1)[Mn-2](=[C]=O)(=[C]=O)(=[C]=O)([O]3)[N+]=4CCCC,HCT-15,MTT,,"50 µM, 48 h, photolysed compound",,viability reduction,83%
O=C(C[Se]C(=O)c1ccc2ccccc2n1)Nc1cccc(C(F)(F)F)c1,NCI60 melanoma subpanel,"cell growth, inhibitor",,five-dose,,GI50,1840 nM
CN(C)CCN1CCN(c2ccc3nc(-c4ccc5nc(-c6ccc(C(F)(F)F)cc6)[nH]c5c4)[nH]c3c2)CC1,HCT-15,SRB,,"10 µM, 48 h",,growth percent,91.6%
CN(C)c1ccc(-n2cc(COC(=O)[C@@]3(C)C=C(C(=O)OC(C)(C)C)C(=O)CC3)nn2)cc1,HeLa,quantitative western blot,,"concentration not given, 7 (unit not given), together with: EGF",,pRSK/tubulin ratio,0.238
Cc1ncsc1-c1ccc(C(C)NC(=O)C2CC(O)CN2C(=O)C(NC(=O)CCCCCCCCCCN2CCCC(Nc3ncc(Cl)c(Nc4ccccc4S(=O)(=O)C(C)C)n3)C2)C(C)(C)C)cc1 (stereo not drawn),22Rv1,"RNA-seq, item: TBC1D25 mRNA",,concentration not given,reference: DMSO,log2 fold change,-1.09
O=C(C[Se]C(=O)c1cc2ccccc2[nH]1)Nc1cccc(C(F)(F)F)c1,HCC 2998,"cell growth or viability, SRB",,,,GI50,430 nM
C=CC(=O)Nc1cc(Nc2nccc(-c3c(-c4cc(C)c(F)c(C)c4)n(C)c4ccccc34)n2)c(OC)cc1N(C)CCN(C)C,NCI-H1975,"cell growth or viability, MTT",,"0.5 µM, 72 h",,inhibition,59.4%
CNS(=O)(=O)Nc1nccc(Cc2c(C)c3ccc(Oc4ncccc4F)cc3oc2=O)c1F,HCC70,cell viability,,7 days,,IC50,> 1000 nM
Nc1ncc(-c2cc(-c3cnn(CC(F)(F)F)c3)ncc2F)nc1C(=O)NC1CNCC(F)C1 (stereo not drawn),PCTK2,KINOMEscan,,1 µM,reference: DMSO control,remaining binding,98%
CC(=O)NCCCN(C)CCCNc1cccc2c1C(=O)c1cccc(NCCCN(C)CCCNC(C)=O)c1C2=O,SAS,"RNA-Seq, item: SPIN1 mRNA",,"1 µM, 6 h",reference: untreated cells,log2 fold change,-0.738
C[N+]1(Cc2ccc3ccccc3c2)CCN(CCCN2c3ccccc3Sc3ccc(Cl)cc32)CC1,Uncharacterized protein,"enzyme activity, inhibitor, coupled colorimetric",,together with: E. coli pyrophosphatase coupling,,IC50,50200 nM
O=C(C[Se]C(=O)c1ccccc1Nc1ccccc1)Nc1cccc(C(F)(F)F)c1,NCI60 CNS subpanel,cell growth,,"10 µM, 48 h, one-dose",,mean growth percent,-86.3%
CC(C)c1ccc(N(C)c2ccc3c(c2)OCC[C@H]3CNc2cnccc2C(=O)O)cc1,HCC1419,"cell growth or viability, ATP luminescence",,7 days,,IC50,≥ 10000 nM

# Repeated from above:
Structure (SMILES),tested on,assay,test system,setting,scale,quantity,result
COc1ccccc1-c1ccncc1C(=O)Nc1ccc(OCc2ccc(Cl)cc2)nn1,DLD-1 parental (BRCA2 WT),,,"20 µM, average of 3 runs",reference: untreated,colony survival,97.5%
Cn1ncc2cc(-c3cncc(Cl)c3N3CCC4(CCNC4=O)CC3)ccc21,LS174T,"gene expression, microarray, item: NDRG1 mRNA",,"concentration not given, 4 h",reference: untreated cells,log2 fold change,1.43
COc1ccc(OC)c(C2=Nn3c(nnc3C3CCCCC3)SC2)c1,Uncharacterized protein,"inhibitor, coupled colorimetric",Trypanosoma brucei,,,IC50,48900 nM
